Assay results collected from several papers.
Numbered parts are unrelated; each lists some results of a single study. Substitutions count along the parent as printed.

Set 1 — technique: RNA Bind-n-Seq; molecule type: RNA; matrix: in vitro; tested at: 365 nM; relative to: no-protein control; reading: higher = stronger binding
Target: RNA binding protein fox-1 homolog 2, RRM domain, GST-SBP tag (RBFOX2, Homo sapiens, UniProt O43251-10, residues 100-194)
Setting: natural RNA segment, single round, ends assumed
Shared flanks, not repeated: GGGAGUUCUACAGUCCGACGAUC … UGGAAUUCUCGGGUGCCAA
Target sequence (chain): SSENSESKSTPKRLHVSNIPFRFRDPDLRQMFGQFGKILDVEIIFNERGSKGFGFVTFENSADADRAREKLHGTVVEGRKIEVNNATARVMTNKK
Oligonucleotide	RBNS enrichment (R)
CCAAGUGGAGCAGAGGUGGACAUGGGGUUGGAUUGUUUUGAUUAUUUAUAGUUACACAAGGACUUCUCCCAGCUGACCCUCAGGAUGCCCCAAGUCAGGAAGACCAUUAA	0.381
CCUUCAGCUGUCAGCUUUCUGGGGCUAACUUCUCUGCCUUUGUGGUUGGAGGCCUGAGGCCUCUUGGAACUCUUGCUAACCUGUUCAGAGCCAGGAAGGAGACUGCACAG	0.309
UUCAUUUGAAGCUGAAUAUAUACGUAGUCAUGUUUAUGUUGAGAACUAAGGAUAUUCUUUAGCAAGAGAAAAUAUUUUCCCCUUAUCCCCACUGCUGUGGAGGUUUCUGU	0.412
UUAUGGGCCUUGGGAGUACUUCUCCCCUGCCCUGCCCCACUGUCCCCUUCCUGACAACUUGAGCCAGUAAGCCAUGCAGGGUGUGGUGCCUCCUAGAGAAAACACUGCCU	0.28
ACCAUGCUGGCCAGGCUGGUCUCGAACUCCUGACCUCAGGUGAUCCCCCCCACCUCAGCCUCCCAAAGUGCUGGGAUUACAGGCGUGAGGCAUCACACCUGCCUCUGUUG	0.199
AGGUUGUAAUGCAGUGGCGCAAUCUCAGCUCACUGCAACCUCUCUCUCCCGGGUUCAAGUGAUUCUCCUGCCUCAGCCUCCCAAGUAGCUGGGAUUACAGGCACCCACCA	0.338
CGUCUUUCCUUUGUAUUGGAGAAGGACUGGGUCAGAGAUCUGUUGGAGAGAGAGAAUAAAGAGAUUAUUUUUCAUUAUUUUUAAAUGGUUGUUUUUGUUUUAAUUUGCAC	1.52
CCCUAUCCUAAGACUCGGAAAGGCCCACCCUGAGGUUCUAUUGCCUUCCUGGUGGUAUCAGCUUCCAGCUGUUUCAACCCUUCCCAGCCCGUUGCUGGCGAUGGGCCCAU	0.169
UGUUUGGUUGGGUUUUUGUUUGUUUGUUUUUUGUUUUUGCUUUUAUUGCCAAGAGGUGCUUGUUUUAAAAGUAUGUUUAAUAAAAUGAAAUUCUAAAGUUAGAAGUGUUC	4.13
UAUAGUUUUUACAGUGUGAAUCCAACAUUGGCUCAGUAUGCUAAUGUGACAGUCAACAGUUAUCUAAAGCAGGUGAGCUCUGAUGAACAAAUGUAUUUUCAGUGAGUCUG	0.261
UGAAUGGGAGCCUCAGGCAUGAUGUGCAGAAAUAGCCUUCUACACCAGGCAGGGACAGGUUGCCUGUGGCCCCCUCAAUCUGAGGUGCACCCCUUGGGCUAUGGACCCCA	0.651
GCUGACCCAGUCCCUGGGGGAAGCCCUGGAUUUCAGAAAGAGCAAGUCUGGAUCUGGGACCCUUUCCUUCCUUCCCUGGCUUGUAACUCCACCAACCCAUCAGAAGGAGA	0.311

Set 2 — technique: protein-binding microarray; molecule type: double-stranded DNA, one strand shown; matrix: in vitro; tested at: 250 nM; setting: 60-bp whole probe; added: salmon DNA 0.4 mg/ml; relative to: random background probes; reading: higher = stronger binding; shared flanks, not repeated: GCCTAGCAC … GTCTTGATTCGCTTGACGCTGCTG
Target: Interferon regulatory factor 7, full length, phosphomimetic (IRF7, Homo sapiens, UniProt Q92985, residues 1-503, S101K/S471D/S472D/S475D/S476D/S477D/S483D/S484D/S487D)
Chain of UniProt Q92985 (whole entry, unmodified, looked up): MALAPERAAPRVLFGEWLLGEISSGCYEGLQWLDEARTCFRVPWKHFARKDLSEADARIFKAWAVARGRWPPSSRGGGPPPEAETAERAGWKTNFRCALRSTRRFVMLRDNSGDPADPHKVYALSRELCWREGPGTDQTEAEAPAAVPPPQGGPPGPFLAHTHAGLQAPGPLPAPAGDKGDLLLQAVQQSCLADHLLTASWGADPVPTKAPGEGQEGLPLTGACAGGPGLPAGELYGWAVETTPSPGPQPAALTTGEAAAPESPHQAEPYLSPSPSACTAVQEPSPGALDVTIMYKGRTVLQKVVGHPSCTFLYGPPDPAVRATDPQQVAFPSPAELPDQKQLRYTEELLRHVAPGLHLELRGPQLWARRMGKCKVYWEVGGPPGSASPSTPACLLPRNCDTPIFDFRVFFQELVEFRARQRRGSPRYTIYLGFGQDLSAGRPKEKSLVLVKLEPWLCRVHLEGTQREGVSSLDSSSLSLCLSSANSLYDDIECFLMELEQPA
Oligonucleotide	log fluorescence
ATAGGTTTCGACACTGGGTTAGTGCTA	3.31 z-score
TCAACTCTCTTGTCTGGAACTGTGCTA	0.195 z-score
CTGTGGGAGGCCCGCGGGAGGTGCTAG	-1.33 z-score
GACGGTTTCGACTAGCGGGACGTGCTA	6.99 z-score
GACGGTCTCGGTTTAGGGACGTGCTAG	7.02 z-score
GTCGGACTGGGGACTGGGGACGTGCTA	-0.29 z-score
GACGTTTTCGGACTGGGGACGTGCTAG	1.05 z-score
GACGGACTGCTCCTGCTGACGTGCTAG	-0.975 z-score
TCCTATATCTGAACCGCAGAGTGCTAG	0.564 z-score
TTAGATCTCAGTTTCGACTAGTGCTAG	3.61 z-score
GACGGACTGCTTCTCCTGAGGTGCTAG	-0.269 z-score
CTAGGTATCCTTCTCCTTTAGTGCTAG	0.737 z-score
CTAGGTTCCCTTTTCCTTTAGTGCTAG	4.44 z-score
TTAGAACTGGGGAATGGATTAGTGCTA	-0.359 z-score
TTAGGTATCGCGTTTCGGTTAGTGCTA	3.06 z-score
GACGGTATCTGGTTTCGGGACGTGCTA	3.21 z-score
TTAGGACTGCTTCTGCTTTAGTGCTAG	0.0474 z-score
TTAGATATCAGATTGGATTAGTGCTAG	-0.149 z-score
GACGGTATCGGGTTTCGGGAAGTGCTA	2.75 z-score
TTAGAACTGGGGACTGTATTAGTGCTA	-0.245 z-score
GACGGTATCGGGTACCGGGACGTGCTA	0.275 z-score
CTGTTTTTGCTTTCCTTTATGTGCTAG	3.08 z-score
CACGGTTTCGGTTTCGGGACGTGCTAG	14.4 z-score
GAGGGACTGCTACTGCTGACGTGCTAG	-1.03 z-score
GACGGTATCCTCCTGCTGACGTGCTAG	-0.349 z-score

Set 3 — technique: DHFR PCA, deep sequencing; matrix: yeast; added: (+)-ABA 0.032 µM; relative to: wild-type fitted maximum; reading: higher = stronger binding
Target: ABI1, truncated, D143A, DHFR fusion (Arabidopsis thaliana)
Setting: methotrexate growth selection, single substitutions
Parent: PYL1, truncated, DHFR fusion (Arabidopsis thaliana); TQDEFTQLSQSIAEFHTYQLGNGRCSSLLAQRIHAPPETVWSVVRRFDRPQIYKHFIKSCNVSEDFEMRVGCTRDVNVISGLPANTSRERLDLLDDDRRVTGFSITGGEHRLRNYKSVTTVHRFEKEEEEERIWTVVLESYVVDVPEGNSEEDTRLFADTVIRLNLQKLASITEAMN; partner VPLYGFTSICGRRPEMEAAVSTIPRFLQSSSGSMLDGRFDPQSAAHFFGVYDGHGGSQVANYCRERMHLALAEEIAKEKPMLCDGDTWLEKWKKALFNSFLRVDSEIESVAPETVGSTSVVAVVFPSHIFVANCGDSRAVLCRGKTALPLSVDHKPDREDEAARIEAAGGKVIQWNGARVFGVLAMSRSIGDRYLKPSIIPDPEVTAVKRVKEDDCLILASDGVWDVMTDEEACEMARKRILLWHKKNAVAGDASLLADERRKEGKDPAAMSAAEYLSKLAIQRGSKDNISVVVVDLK
Change	relative binding score
E128Y	12.5%
T73F	44.3%
V121R	0.165%
D159F	-9.98%
H55S	10.5%
G148F	-14.3%
K126E	41.8%
Y18H	26.8%
Q10S	39.2%
T6H	34.5%
E109S	13.6%
K168I	-5.39%
P50S	5.93%
T160Y	18.1%
S9D	12.7%
V40P	0.837%
S27C	4.26%
V161Y	9.11%
E152L	1.75%
R32C	17.7%
E131M	39.1%
S9R	56%

Set 4 — technique: competition protein-binding microarray; molecule type: double-stranded DNA, one strand shown; matrix: in vitro; tested at: 2 µM; added: Cbf1 competitor, 0.05 µM; reading: higher = stronger binding; shared flanks, not repeated: … GTCTTGATTCGCTTGACGCTGCTG
Target: Phosphate system positive regulatory protein PHO4, full length, GST-tagged (PHO4, Saccharomyces cerevisiae, UniProt P07270, residues 1-312)
Setting: whole 60-bp probe, lowest competitor level
Construct (chain): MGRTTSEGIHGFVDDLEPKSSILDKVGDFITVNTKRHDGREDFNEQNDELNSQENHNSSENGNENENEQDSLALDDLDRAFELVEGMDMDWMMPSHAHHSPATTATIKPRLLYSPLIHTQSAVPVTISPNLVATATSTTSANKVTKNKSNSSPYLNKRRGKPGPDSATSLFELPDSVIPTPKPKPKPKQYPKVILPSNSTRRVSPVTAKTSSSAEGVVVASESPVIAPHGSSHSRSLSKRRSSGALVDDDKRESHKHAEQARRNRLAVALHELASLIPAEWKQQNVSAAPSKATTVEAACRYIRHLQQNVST
Oligonucleotide	fluorescence intensity [a.u.]
CCGACGTCCGCCTTGCATGCGCTCTCGCATTTTTAA	6780
TTAACCCACAAACGTCAGGTGTACAATCGCAAATCC	4020
TCATAGAGACTTCCACGCGTGGCAAGGTGATTGGCC	9340
CAGCAAGACCGGAAACACGTTGTTGGGTAAATACTT	14200
AACCAATACCACCGTCACGTGTTTTCAAGAAAGAAG	18300
TTGGCGTTTGACTGTCACAGTCCCAAATCCTTGCAG	3090
TTTCTGAAAAAAATGCGCGTGAAAAGGAATCATTTG	5460
GTCCGAAAGGACAATCACATGCAGAGGTTCAAAGTA	8190
CTTCTGTAAATTTGTAGCGTGGGTGGACGCGCCCCG	7060
GTCTTGTCTCATTGCACCGTGGGTGTCCCCACTTCA	9450
CCTAGCACTCGCTATTTCGTGACGGCGTTCCAGGAC	4260
TGCGCAACAACTTTTCACGTGACTTTATGTCTAGAA	10500
TTCCATCTTCTAAAGACCGTGTCTGCGCTTCCAGAT	7920
GTCTTGTCTCATTGCGCAGTGGGTGTCCCCACTTCA	4170
GTCTTGTCTCATTGATACGTGGGTGTCCCCACTTCA	6190
AATCCTATTAAATTGCGCGTGGGAGTTTAAATGGGT	10600

Some of these lines once more (set 3):
Change	relative binding score
E128Y	12.5%
T73F	44.3%
V121R	0.165%
D159F	-9.98%
H55S	10.5%
G148F	-14.3%
K126E	41.8%
Y18H	26.8%
Q10S	39.2%
T6H	34.5%
E109S	13.6%
K168I	-5.39%
